Published values pooled from the literature.
Compare with care: the assays were run in different laboratories. Several values in a cell are separate wells, animals, samples, runs or records.
Target: Protein-tyrosine kinase 6 (PTK6, Homo sapiens, UniProt Q13882)

| Structure (SMILES) | assay | test system | setting | how to read | measurement | result |
| --- | --- | --- | --- | --- | --- | --- |
| C[C@H]1CN(C(=O)c2cn(-c3ccnc(N)n3)c3cc(C#CC4(O)CCCCC4)ccc23)CCN1 | enzyme activity, inhibitor, FRET |  | 1 µM |  | inhibition | -2% |
| COc1cc(Nc2nc(C)cc(-c3cnn4nc(OC)ccc34)n2)cc(C(F)(F)F)c1 | KINOMEscan |  | 1 µM, BRK | relative to: DMSO | remaining binding | 100% |
| CNC(=O)C[C@H](Cc1ccc(C#N)cc1)NC(=O)c1cc(-c2ccc(CN[C@H](C)c3ccc(C)cc3)o2)ccc1Cl | enzyme activity, inhibitor |  | 1 µM |  | activity vs control | 105% |
| Cc1ccc(-c2c(/C=C(\C#N)C(=O)NC(C)C)n(CCCO)c3ncnc(N)c23)cc1 | cell-free assay, competition with immobilised ligand |  | 1 µM |  | remaining binding | 78% |
| Cc1nc2c(F)cc(-c3nc(Nc4ccc(CNC(=O)CCCCCCC(=O)NO)cc4)ncc3F)cc2n1C(C)C | enzyme activity, inhibitor |  | 1 µM |  | inhibition | 49% |
| C=CC(=O)N1Cc2nc(-c3cc(-c4cc(Cl)cnc4Cl)c(F)cc3F)n(-c3ccncn3)c2C1 | cell-free assay, inhibitor |  | 1 µM |  | inhibition | -1.7% |
| COc1c(OCCCN2CCOCC2)ccc2c1N=C(NC(=O)c1cnc(N)nc1)N1CCN=C21 | kinase activity, inhibitor |  | 1 µM | relative to: untreated control | remaining activity | 112% |
| O=C=[N][Ru-4]123([n]4c5ccc(O)cc5c5c6c(c7cc(F)c[n+]1c7c54)C(=O)NC6=O)[S+]1CC[S+]2CC[S+]3CC1 (stereo not shown) | enzyme activity |  | 100 nM, human enzyme, with: 10 µM ATP | relative to: untreated | remaining activity | 114% |
| C=CC(=O)Nc1cccc(-c2cnc3[nH]cc(C(=O)NC(C)(C)C)c3n2)c1 | kinase activity |  | 0.1 µM |  | inhibition | 0% and 3% |
| CC(C)=CC1OC(C)(C)C2C=C3C(=O)C(Cl)=CC(O)C3C3C(O)C4OC4C(=O)C132 (stereo not shown) | cell-free assay, competition with immobilised ligand |  | 10 µM |  | remaining binding | 96% |
| Nc1ncc2c(n1)-c1c([nH]c3ccc(C4=CCOCC4)cc13)CCC2 | binding, competition with immobilised ligand |  | 1 µM |  | remaining binding | 100% |
| Nc1ncc(-c2cc(-c3cnn(CC(F)(F)F)c3)ncc2F)nc1C(=O)NC1CNCC(F)C1 (stereo not shown) | enzyme activity |  | 1 µM | relative to: DMSO control | remaining activity | 76.8% |
| NC(=O)[C@@H](O)C[C@H]1CCc2sc3ncnc(O[C@H]4CC[C@H](N5CCOCC5)CC4)c3c21 | enzyme activity, inhibitor |  | 10 µM |  | inhibition | 32% |
| O=C(Cc1ccc(OCc2ccccc2)cc1)NC1(C(=O)O)CCN(C(=O)c2ccc(-c3cccc(Cl)c3)cc2)CC1 | enzyme activity, inhibitor |  | 10 µM |  | activity vs control | 124% |
| N[C@H]1CC[C@H](Nc2nccc(-c3cccnc3Oc3ccc(NC(=O)NC4CC4)c4ccccc34)n2)CC1 | kinobead competition pulldown | HEK293/HCT116 lysate mixture | 10 µM, 1 h, 4 °C | lower = stronger competition | log2 LFQ intensity | 21.6 and 20.4 and 19.8 and 21.5 |
| Cc1cccc(O[C@H]2CCC[C@@H](C(C)CNCc3ccncc3)C2)c1 (relative stereo) | enzyme activity, inhibitor |  | 1 µM |  | inhibition | -2% |

Some of these lines once more:
| Structure (SMILES) | assay | test system | setting | how to read | measurement | result |
| --- | --- | --- | --- | --- | --- | --- |
| CC(C)=CC1OC(C)(C)C2C=C3C(=O)C(Cl)=CC(O)C3C3C(O)C4OC4C(=O)C132 (stereo not shown) | cell-free assay, competition with immobilised ligand |  | 10 µM |  | remaining binding | 96% |
| Nc1ncc2c(n1)-c1c([nH]c3ccc(C4=CCOCC4)cc13)CCC2 | binding, competition with immobilised ligand |  | 1 µM |  | remaining binding | 100% |
